Assay results collected from several papers.
Several values in a cell are separate wells, animals, samples, runs or records. ± gives the spread as reported.
USP49 ZnF-UBD domain: Ubiquitin carboxyl-terminal hydrolase 49, ZnF-UBD domain (USP49, Homo sapiens, UniProt Q70CQ1)
Sequence of UniProt Q70CQ1 (whole entry, looked up): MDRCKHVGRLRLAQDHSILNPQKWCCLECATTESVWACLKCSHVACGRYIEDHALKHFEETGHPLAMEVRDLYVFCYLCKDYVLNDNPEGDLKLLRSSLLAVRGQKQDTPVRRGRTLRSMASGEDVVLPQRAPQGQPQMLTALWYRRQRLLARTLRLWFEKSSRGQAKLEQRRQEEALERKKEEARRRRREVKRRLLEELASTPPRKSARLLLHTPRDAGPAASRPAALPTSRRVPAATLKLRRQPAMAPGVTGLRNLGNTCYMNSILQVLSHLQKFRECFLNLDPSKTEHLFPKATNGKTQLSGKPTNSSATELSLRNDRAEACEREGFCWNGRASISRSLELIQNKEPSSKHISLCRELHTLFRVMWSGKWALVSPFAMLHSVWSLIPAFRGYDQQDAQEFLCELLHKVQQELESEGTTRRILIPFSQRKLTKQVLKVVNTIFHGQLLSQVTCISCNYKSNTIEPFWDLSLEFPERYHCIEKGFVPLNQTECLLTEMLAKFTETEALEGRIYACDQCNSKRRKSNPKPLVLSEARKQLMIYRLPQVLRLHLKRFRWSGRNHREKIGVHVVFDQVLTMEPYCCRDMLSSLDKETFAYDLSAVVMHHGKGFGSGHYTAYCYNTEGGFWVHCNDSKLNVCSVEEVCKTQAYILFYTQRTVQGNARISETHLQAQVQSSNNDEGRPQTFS

`C=CC(=O)NC1CCN(c2ncc3ncnc(Nc4ccc(Oc5ccc6c(c5)ncn6C)c(C)c4)c3n2)CC1`: “adverse events incidence” 6% (item: infections and infestations (SOC); human male; oral, dose not given, CTCAE on-treatment AEs).
`O=C(/C=C/CN1CCCCC1)Nc1cc2c(Nc3ccc(F)c(Cl)c3)ncnc2cc1O` — result for “metabolite to parent AUC(0-inf) ratio”: 0.478 (human, plasma; oral, 30 mg dacomitinib).
For `Cc1cc(-c2nccc3c2ccn3CC(=O)Nc2ccc(-c3cnccn3)cn2)ccn1`, “general or administration site disorders” read 37.5% (human; 5 mg once daily, multiple ascending dose).
`Cc1ccc(C(=O)N(CCCN)C(c2nc3snc(C)c3c(=O)n2Cc2ccccc2)C(C)C)cc1` (stereo not shown) — result for “patients with adverse events”: 5% (item: Fatigue; human patients; intravenous, dose not given, CTCAE grade ≥3, all doses).
`C[C@H](NC(=O)[C@H](CCC(N)=O)NC(=O)[C@H](C)NC(=O)[C@H](CCCNC(=N)N)NC(=O)[C@H](CCC(N)=O)NC(=O)[C@H](C)NC(=O)[C@H](CCCNC(=N)N)NC(=O)[C@H](CCC(N)=O)NC(=O)[C@H](C)NC(=O)[C@H](CCC(N)=O)NC(=O)[C@H](CCCNC(=N)N)NC(=O)[C@H](C)NC(=O)[C@H](CCC(N)=O)NC(=O)[C@H](CCCNC(=N)N)NC(=O)[C@H](C)NC(=O)[C@H](CCC(N)=O)NC(=O)[C@H](C)NC(=O)[C@H](CCCNC(=N)N)NC(=O)[C@H](CCC(N)=O)NC(=O)[C@H](C)NC(=O)[C@H](CCCNC(=N)N)NC(=O)[C@H](CO)NC(=O)[C@H](Cc1ccc(O)c(I)c1)NC(=O)CNC(=O)CNC(=O)CN)C(=O)N[C@@H](CCCNC(=N)N)C(=O)N[C@@H](CCC(N)=O)C(=O)N[C@@H](C)C(=O)N[C@@H](CCCNC(=N)N)C(=O)N[C@@H](CCC(N)=O)C(=O)O` [iodine-125 labelled] has a tissue uptake of 24.7 %ID/g (H2-Ld-huIL-6 Tg Balb/c mice, AA amyloidosis, pancreas; intravenous, 4 h, decay-corrected).
For `OCc1nc2ccc(NCc3ccc(C(F)(F)F)cc3)cc2[nH]1`, tissue concentration read “not detected” (Balb/c mice, male, lungs; intravenous, 1 mg/kg, 48 h).
The intact complex of `O=C(O)CN1CCCN2CCN(Cc3ccccc3)CCCN(CC1)Cc1cccc(n1)C2` is reported as 99% (64Cu complex in rat plasma; 0.5 h, 37 °C).
Under “participants with dizziness”, `C[C@@H](N)C1CCN(S(=O)(=O)c2cccc3cnccc23)CC1` is recorded as 16.7% (healthy volunteers; 75 mg, fasted).
For `FC(F)(F)c1ccc(CNc2ccc(Cc3c[nH]c4ncc(Cl)cc34)cn2)cn1`, “adverse event incidence” read 0% (item: Pyrexia; patients with advanced solid tumours; oral, dose not given, grade 3 and 4, possibly related to drug).
`Cc1cc(Nc2ccc(S(F)(F)(F)(F)F)cc2)n2nc(C(C)(F)F)nc2n1` gave a QTcF increase of roughly 10 ms (12-lead ECG and Holter; human, malaria patients; oral, dose not given, depends on dose and infection type).
For `CCN1/C(=C/C(C)=O)Sc2ccc(F)cc21`, “systolic blood pressure change” read 97.7 ± 3.8% (cynomolgus monkey; oral, 30 mg/kg, 24 h post-dose; reference: pre-dose).
For `CC[C@H](C)[C@H](NC(=O)[C@H](Cc1ccccc1)NC(=O)[C@H](CCC(=O)O)NC(=O)[C@H](CCCCNC(=O)COCCOCCNC(=O)COCCOCCNC(=O)CC[C@H](NC(=O)CCCCCCCCCCCCCCCCC(=O)O)C(=O)O)NC(=O)[C@H](C)NC(=O)[C@H](C)NC(=O)[C@H](CCC(N)=O)NC(=O)CNC(=O)[C@H](CCC(=O)O)NC(=O)[C@H](CC(C)C)NC(=O)[C@H](Cc1ccc(O)cc1)NC(=O)[C@H](CO)NC(=O)[C@H](CO)NC(=O)[C@@H](NC(=O)[C@H](CC(=O)O)NC(=O)[C@H](CO)NC(=O)[C@@H](NC(=O)[C@H](Cc1ccccc1)NC(=O)[C@@H](NC(=O)CNC(=O)[C@H](CCC(=O)O)NC(=O)C(C)(C)NC(=O)[C@@H](N)Cc1cnc[nH]1)[C@@H](C)O)[C@@H](C)O)C(C)C)C(=O)N[C@@H](C)C(=O)N[C@@H](Cc1c[nH]c2ccccc12)C(=O)N[C@@H](CC(C)C)C(=O)N[C@H](C(=O)N[C@@H](CCCNC(=N)N)C(=O)NCC(=O)N[C@@H](CCCNC(=N)N)C(=O)NCC(=O)O)C(C)C`, “QTcF change from baseline” read -2.5 ms (12-lead Holter ECG; healthy humans; subcutaneous, 1.5 mg once weekly, 36 h, steady state; reference: placebo).
The logD of `NC[C@H](NC(=O)c1ccc(C#Cc2ccccc2)cc1)C(=O)NO` is reported as 4.38 (octanol/buffer; pH 7.4).
`Cc1cn(-c2cc(NC(=O)c3ccc(C)c(Nc4nccc(-c5cccnc5)n4)c3)cc(C(F)(F)F)c2)cn1`: “absorption duration (D1)” 2.41 h (population PK model, typical value; human, plasma; oral, fasted state).
The Kd of `O=C(O)CCn1cccn1` is reported as 56 µM (USP49 ZnF-UBD domain).
`CN1CCN(C(=O)CN(c2cc(C(F)(F)F)ccc2Cl)S(=O)(=O)c2ccccc2)CC1` has a logD of 2.8 (octanol/buffer; pH 7.4).
`O=C(O)CNc1ccc2nncn2n1` gave a Kd of greater than 1000 µM (USP49 ZnF-UBD domain).
`CN(CCC(=O)O)C(=O)c1ccc2c(c1)CC[C@@H]1[C@@H]2CC[C@]2(C)C(c3cncc(F)c3)=CC[C@@H]12` gave a total bilirubin of 0.964 mg/dL (premenopausal women with endometriosis pain, serum; 60 mg twice daily, end of treatment, completers, mean).
`CC(C)(C)c1ccc([C@H]2COC[C@H](c3ccc(F)cc3)N2)cc1` gave a logD of greater than 4.7 (shake-flask, 1-octanol/buffer; pH 7.4).
`Cn1cnc2c(F)c(Nc3ccc(Br)cc3Cl)c(C(=O)NOCCO)cc21` — result for “absorption rate constant”: 1.05 h⁻¹ (population PK model; human, plasma; oral, sequential zero-first-order absorption, fasted).
`CC#CC(=O)N1CCC[C@H]1c1nc(-c2ccc(C(=O)Nc3ccccn3)cc2)c2c(N)nccn12`: “GSH adduct formation” 94% (PBS; 100 µM, 23 h, pH 7.45, 37 °C, added: GSH 5 mM).
`Cc1ccc([C@@H]2O[C@H](CO)[C@@H](O)[C@H](O)[C@H]2O)cc1Cc1ccc(-c2ccc(F)cc2)s1`: “urinary magnesium excretion change” -37.7 mg (Japanese type 2 diabetes patients; 400 mg, day 1, 24 h urine collection; reference: baseline).
`Cc1nc(C)c(-c2ccnc(Nc3cccc([N+](=O)[O-])c3)n2)s1` has a logD of 4.34 (octanol/buffer; 67 µM, pH 7.4).
For `CNC(=O)c1cc(Oc2ccc(NC(=O)Nc3cc(C(C)(C)C)nn3-c3ccc4ncccc4c3)c(F)c2)ccn1`, “patients with visual abnormality AE” read 20% (item: worst grade 1; human; oral, dose not given, cycles 1 and 2, Low AUC(0-4 h) subgroup).
`C[C@@H](O[C@H]1OCCN(Cc2n[nH]c(=O)[nH]2)[C@H]1c1ccc(F)cc1)c1cc(C(F)(F)F)cc(C(F)(F)F)c1` gave a CC50 of greater than 50 µM (human cells, human).
For `Cc1ccc(N(C)C(=O)/C=C/c2ccco2)cc1`, the licking latency was 15 ± 0.6 s (hot plate test; mouse; oral, 30 mg/kg daily for 7 days, day 8, 30 min after dose).
Under “skin subcutaneous disorders incidence”, `Cc1cc(Nc2cc3ncccc3c(N[C@@H]3C[C@H]4CC[C@@H](C3)N4CCC#N)n2)n[nH]1` is recorded as 50% (healthy human subjects; oral, 10 mg, 14 days, multiple ascending dose).
The half-life of `CCn1cc(C(=O)N2CCOCC2)c(=O)c2cc(NC3Cc4ccccc4C3)cnc21` is reported as 5.34 h (human female, fed, plasma; oral, 900 mg twice daily, day 7, tablet, arithmetic mean).
The concentration of `CCc1c(-c2ccccc2)c(-c2ccccc2)nn1-c1ccccc1-c1cccc(OCC(=O)O)c1` is reported as 37600 ng/g and 26500 ng/g (Sprague-Dawley rat, stomach; oral, 10 mg/kg, 1 h).
Under “patients with adverse event”, `Cc1cc(NC2CCN(C(=O)OC3CCN(C(=O)/C=C/CN(C)C)C3)CC2)n2ncc(C(C)C)c2n1` (stereo not shown) is recorded as 0% (Phase I dose escalation CTCAE v4.0, item: AST increased; patients with advanced solid tumours; dose not given, TIW dosing grade 3 or higher).
For `CCOc1c([C@H](C)n2nc(C)c3c(N)ncnc32)cc(Cl)c(F)c1[C@@H]1CNC(=O)C1`, “half-life geometric mean” read 9.7 h (patients with B-cell malignancies, plasma; oral, 30 mg, day 15, all cohorts, monotherapy).
The Cmin of `CN1CCCC1CCNS(=O)(=O)c1ccc2c(c1)CN(CC1CCCCC1)CC2` (stereo not shown) is reported as 100 ng/g (wild-type mouse, pons/cerebellum; oral in diet, 0.02% in diet, 6 months).
`CC(C)c1nc(CN(C)C(=O)N[C@@H](CCN2CCOCC2)C(=O)N[C@H](CC[C@H](Cc2ccccc2)NC(=O)OCc2cncs2)Cc2ccccc2)cs1`: “grade 3-4 TEAE” 0% (human; oral, 150 mg, drug interaction trial).
`CC(=O)N/C(=C\c1ccc(Cc2nc3c([nH]2)C(=O)c2ccccc2C3=O)cc1)c1nc2c([nH]1)C(=O)c1ccccc1C2=O` has a hydrodynamic radius of 25.6 nm (dynamic light scattering; buffer; 20 µM).
`CC(C)(C(=O)N1CCOc2c(C#N)cncc2C1)C(F)F` — result for “subjects with dizziness TEAE”: 0% (human, both sexes; oral, 20 mg single dose).
With `CCO[C@H]1CCN(Cc2c(OC)cc(C)c3[nH]ccc23)[C@H](c2ccc(C(=O)O)cc2)C1` the total Cmax was 3340 ng/mL (human severe hepatic impairment, plasma; oral, 200 mg single dose, mean).
`FC(F)(F)c1ccc(CNc2ccc(Cc3c[nH]c4ncc(Cl)cc34)cn2)cn1` — result for “treatment-related adverse events”: 40% (item: Fatigue; patients with advanced solid tumours, non-TGCT cohort; oral, 1000 mg/day, any grade).
Under “adverse event incidence”, `O=C1CCc2ccc(OCCCCN3CCN(c4cccc(Cl)c4Cl)CC3)cc2N1` is recorded as 4.5% (item: Tremor; patients, CYP2D6 normal metabolizers; dose not given, long-acting oral or depot).
For `Cc1cccc([C@H]2N[C@H](c3ccc4ccccc4c3)COC2(C)C)c1`, the logD was greater than 4.7 (shake-flask, 1-octanol/buffer; pH 7.4).
`COc1cccc(OC)c1NS(=O)(=O)c1ccc(N/C=C2\C(=O)Nc3ccc4ncsc4c32)cc1` has a logD of 3.82 (octanol/buffer; 67 µM, pH 7.4).
`Cc1ccc([C@@H]2COC[C@H](c3ccc(-c4ccccc4)cc3)N2)cn1` has a logD of greater than 4.7 (shake-flask, 1-octanol/buffer; pH 7.4).
`C[C@@H]1CCO[C@H]2Cn3cc(C(=O)NCc4ccc(F)cc4F)c(=O)c(O[C@@H]4O[C@H](C(=O)O)[C@@H](O)[C@H](O)[C@H]4O)c3C(=O)N12` has a Ctau of 1.2 µg/mL (human, haemodialysis patients, plasma; dose not given, steady state).
`CC(C)C[C@H](NC(=O)[C@@H](Cc1c[nH]c2ccccc12)NC(=O)[C@H](Cc1ccc(O)cc1)NC(=O)[C@H](CO)NC(=O)[C@H](Cc1c[nH]c2ccccc12)NC(=O)[C@H](Cc1c[nH]cn1)NC(=O)[C@@H]1CCC(=O)N1)C(=O)N[C@@H](CCCNC(=N)N)C(=O)N1CCC[C@H]1C(=O)NCC(N)=O`: “patients, drug-related Dermatitis TEAEs” 1.5% (Chinese CPP children; intramuscular, 22.5 mg, 12 months, day 1, month 6).
With `CN1C(=O)[C@@H](NC(=O)c2nnc(Cc3ccccc3)[nH]2)COc2cccnc21` the Tmax was 3 to 4 h (human, both sexes; oral, single and repeated dosing, median).
Under “chromatographic hydrophobicity index”, `CC(C)c1c(C(=O)Nc2ccccc2)c(-c2ccccc2)c(-c2ccc(F)cc2)n1CC[C@@H]1C[C@@H](O)CC(=O)O1` is recorded as 106 (reverse phase LC, C18; acetonitrile gradient, 0.1% formic acid; converted from retention time; reference: Valko CHI standards).
Under tissue concentration, `CSc1cc(C)nc(SC)c1NC(=O)CN1CCN(CCSc2nc3ccccc3[nH]2)CC1.Cl` is recorded as “not detected” (mouse Crl:CD1 (ICR), female, cerebrum; intranasal, 10 µL of CA solution once daily for 7 days, 120 min after last dose, LLOQ 0.5 ng/g).
